Experimental data from different studies.
Protocols differ between the studies behind these lines. Numbers after ± are the reported error.

Cc1ccc(C=NC(=S)NNC(=O)Cc2ccc(Cl)cc2Cl)cc1
IC50 (hydroxyl radical scavenging): 56 ± 1.41 µM

CCCCC(O)c1ccccc1C(=O)O (centres unmarked)
IC50 (platelet aggregation, inhibitor; platelets; added: arachidonic acid 1 mmol/L): 350 ± 90 µM

O=S1(=O)C=C(Sc2nnc[nH]2)c2ccccc21
IC50 (CoA-CPM signal reduction, CPM fluorescence thiol; cell-free biochemical; assay interference counter-screen, added: CoA replacing acetyl-CoA): > 125 µM

CCN(CC)c1ccc(/C=N/c2ccccc2F)c(O)c1
IC50 (ferric reducing power, FRAP): > 400 µM

Sc1nnc(-c2ccccc2)[nH]1
IC50 (CoA-CPM signal reduction, CPM fluorescence thiol; cell-free biochemical; assay interference counter-screen, added: CoA replacing acetyl-CoA): 280 ± 90 µM

Fc1cccc(/C=N/N=C/c2cccc(F)c2)c1
IC50 (ferric reducing antioxidant power, FRAP): 2900 µM

O=C(Cc1ccc(Cl)cc1Cl)NNC(=S)N=Cc1ccc([N+](=O)[O-])cc1
IC50 (iron chelation; cell-free; EDTA as standard): 61.2 ± 2.83 µM

O=C(O)c1cccnc1Nc1cccc(C(F)(F)F)c1
IC50 (input conductance; vascular smooth muscle cells, guinea pig, AICA arteriole segments in situ): 48 µM

C[C@@H]1O[C@@H](O[C@H]2[C@H](O)[C@@H](O)[C@H](OC[C@H]3O[C@@H](OC(=O)[C@]45CCC(C)(C)C[C@H]4C4=CC[C@@H]6[C@@]7(C)CC[C@H](O[C@@H]8OC[C@H](O)[C@H](O)[C@H]8O)[C@@](C)(CO)[C@@H]7CC[C@@]6(C)[C@]4(C)CC5)[C@H](O)[C@@H](O)[C@@H]3O)O[C@@H]2CO)[C@H](O)[C@H](O)[C@H]1O
IC50 (peroxynitrite scavenging, dihydrorhodamine fluorescence): 62.9 ± 5.25 µM

O=C1O[C@H]([C@@H](O)CO)C(O)=C1O
IC50 (nitric oxide radical scavenging, cell-free): 210 µM

Oc1ccc(/C=C/c2cc(O)cc(O)c2)cc1
IC50 (DPPH radical scavenging; 30 min, 37 °C): 59 ± 1.06 mg/L

CC[C@H](C)[C@H](NC(=O)[C@H](CO)NC(=O)[C@H](CCCNC(=N)N)NC(C)=O)C(=O)N[C@H]1CSSC[C@@H](C(=O)N[C@H](C(N)=O)[C@@H](C)O)NC(=O)[C@H](CCCNC(=N)N)NC(=O)[C@H](Cc2c[nH]cn2)NC(=O)[C@H](C)NC(=O)CNC(=O)[C@H](Cc2c[nH]c3ccccc23)NC(=O)[C@H](CC(=O)O)NC(=O)[C@H](CCC(N)=O)NC(=O)[C@H](Cc2cccc3ccccc23)NC(=O)[C@H](C(C)C)NC1=O
IC50 (complement activation, inhibitor, ELISA, refers to: C3b; normal human serum): 1.31 ± 0.09 µM

Cc1c(C)c2c(c(C)c1O)CCC(C)(C(=O)O)O2 (centres unmarked)
IC50 (antioxidant activity, FRAP): 98.2 µM

CC[C@H](C)[C@H](N)C(=O)N[C@H]1CSSC[C@@H](C(=O)N[C@H](C(N)=O)[C@@H](C)O)NC(=O)[C@H](CCCNC(=N)N)NC(=O)[C@H](Cc2c[nH]cn2)NC(=O)[C@H](Cc2c[nH]cn2)NC(=O)CNC(=O)[C@H](Cc2c[nH]c3ccccc23)NC(=O)[C@H](CC(=O)O)NC(=O)[C@H](CCC(N)=O)NC(=O)[C@H](C(C)C)NC(=O)[C@H](C(C)C)NC1=O
IC50 (complement activation, inhibitor, ELISA, refers to: C3b; normal human serum): 6.17 ± 1.03 µM

O=C1O[C@H]([C@@H](O)CO)C(O)=C1O
IC50 (nitric oxide scavenging): 103 µM

CC(=O)N[C@@H](CC(N)=O)C(=O)N[C@@H](CC(N)=O)C(=O)N[C@@H](CC(C)C)C(=O)N[C@H]1CSSC[C@@H](C(=O)N[C@H](C(N)=O)[C@@H](C)O)NC(=O)[C@H](CCCNC(=N)N)NC(=O)[C@H](Cc2c[nH]cn2)NC(=O)[C@H](Cc2cccc3ccccc23)NC(=O)CNC(=O)[C@H](Cc2c[nH]c3ccccc23)NC(=O)[C@H](CC(=O)O)NC(=O)[C@H](CCC(N)=O)NC(=O)[C@H](Cc2cccc3ccccc23)NC(=O)[C@H](C(C)C)NC1=O
IC50 (complement activation, inhibitor, ELISA, refers to: C5b-9; normal human serum): 2.4 ± 0.25 µM

CC(C)(C(=O)O)c1cc(=O)oc2cc(O)ccc12
IC50 (DPPH radical scavenging): 56 µM

COc1ccccc1C=NC(=S)NNC(=O)Cc1ccc(Cl)cc1Cl
IC50 (iron chelation; cell-free; EDTA as standard): 23.7 ± 1.01 µM

O=C1Nc2ccccc2C1=Cc1ccccn1
IC50 (platelet aggregation, inhibitor; platelets; added: ADP 5 µM): 7.9 µM

O=C(NC1CS(=O)(=O)c2ccccc21)c1ccc2[nH]c3c(c2c1)CCCC3 (centres unmarked)
IC50 (CoA-CPM signal reduction, CPM fluorescence thiol; cell-free biochemical; assay interference counter-screen, added: CoA replacing acetyl-CoA): > 125 µM

Brc1cccc(/C=N/N=C/c2cccc(Br)c2)c1
IC50 (ferric reducing antioxidant power, FRAP): > 3000 µM

CC[C@H](C)[C@H](NC(=O)[C@H](CO)NC(=O)[C@H](CCCNC(=N)N)NC(C)=O)C(=O)N[C@H]1CSSC[C@@H](C(=O)N[C@H](C(N)=O)[C@@H](C)O)NC(=O)[C@H](CCCNC(=N)N)NC(=O)[C@H](Cc2c[nH]cn2)NC(=O)[C@H](Cc2cccc3ccccc23)NC(=O)CNC(=O)[C@H](Cc2c[nH]c3ccccc23)NC(=O)[C@H](CC(=O)O)NC(=O)[C@H](CCC(N)=O)NC(=O)[C@H](Cc2cccc3ccccc23)NC(=O)[C@H](C(C)C)NC1=O
IC50 (complement activation, inhibitor, ELISA, refers to: C5b-9; normal human serum): 2.35 ± 0.16 µM

CCOC(=O)C1=C(CSC2=NCCS2)NC(=O)NC1c1ccc(OC)cc1 (centres unmarked)
IC50 (nitric oxide scavenging): 141 µM

COc1ccc(C=NC(=S)NNC(=O)Cc2ccc(Cl)cc2Cl)cc1OC
IC50 (iron chelation; cell-free; EDTA as standard): 35.1 ± 1.31 µM

CCOC(=O)C1=C(CSC2=NCCS2)NC(=O)NC1c1ccc(C(C)C)cc1 (centres unmarked)
IC50 (nitric oxide scavenging): 85.7 µM

CCN(CC)c1ccc(/C=N/c2ccc(Cl)cc2)c(O)c1
IC50 (ferric reducing power, FRAP): > 400 µM

Sc1nnc(-c2ccccc2)o1
IC50 (CoA-CPM signal reduction, CPM fluorescence thiol; cell-free biochemical; assay interference counter-screen, added: CoA replacing acetyl-CoA): 58 ± 2 µM

COc1cc(/C=N/N=C/c2cc(OC)c(OC)c(OC)c2)cc(OC)c1OC
IC50 (ferric reducing antioxidant power, FRAP): > 3000 µM

Cc1c(CN2CCN(C(=O)[C@H](C)O)CC2)sc2c(N3CCOCC3)nc(-c3cnc(N)nc3)nc12
IC50 (refers to: pAkt; patients, gastrointestinal stromal tumour, plasma): 0.0261 mg/L

Brc1ccccc1/C=N/N=C/c1ccccc1Br
IC50 (nitric oxide scavenging; antioxidant): 1660 µM

COc1ccc(Sc2nsc(N)n2)cc1
IC50 (CoA-CPM signal reduction, CPM fluorescence thiol; cell-free biochemical; assay interference counter-screen, added: CoA replacing acetyl-CoA): > 125 µM

Fc1ccc(/C=N/N=C/c2ccc(F)cc2F)c(F)c1
IC50 (ferric reducing antioxidant power, FRAP): > 3000 µM

CCCC[C@@H]1OC(=O)c2ccccc21
IC50 (platelet aggregation, inhibitor; platelets; added: arachidonic acid 1 mmol/L): 500 ± 40 µM

CC[C@H](C)[C@H](NC(=O)[C@H](CCCNC(=N)N)NC(=O)[C@H](CCC(=O)O)NC(C)=O)C(=O)N[C@H]1CSSC[C@@H](C(=O)N[C@H](C(N)=O)[C@@H](C)O)NC(=O)[C@H](CCCNC(=N)N)NC(=O)[C@H](Cc2c[nH]cn2)NC(=O)[C@H](C)NC(=O)CNC(=O)[C@H](Cc2c[nH]c3ccccc23)NC(=O)[C@H](CC(=O)O)NC(=O)[C@H](CCC(N)=O)NC(=O)[C@H](Cc2c[nH]c3ccccc23)NC(=O)[C@H](C(C)C)NC1=O
IC50 (complement activation, inhibitor, ELISA, refers to: C5b-9; normal human serum): 0.5 ± 0.06 µM

O=C(COC(=O)c1ccccc1Nc1cccc(C(F)(F)F)c1)Nc1ccc(F)cc1
IC50 (nitric oxide scavenging, Griess; 30 min, 25 °C, added: sodium nitroprusside 5 mM): 289 ± 11 µM

CC[C@H](C)[C@H](NC(=O)[C@H](CO)NC(=O)[C@H](CCCNC(=N)N)NC(C)=O)C(=O)N[C@H]1CSSC[C@@H](C(=O)N[C@H](C(N)=O)[C@@H](C)O)NC(=O)[C@H](CCCNC(=N)N)NC(=O)[C@H](Cc2c[nH]cn2)NC(=O)[C@H](Cc2cccc3ccccc23)NC(=O)CNC(=O)[C@H](Cc2c[nH]c3ccccc23)NC(=O)[C@H](CC(=O)O)NC(=O)[C@H](CCC(N)=O)NC(=O)[C@H](Cc2c[nH]c3ccccc23)NC(=O)[C@H](C(C)C)NC1=O
IC50 (complement activation, inhibitor, ELISA, refers to: C3b; normal human serum): 2.89 ± 0.14 µM

CCN(CC)c1ccc(/C=N/c2ccc(Br)cc2)c(O)c1
IC50 (ferric reducing power, FRAP): > 400 µM

CC#Cc1cncc(-c2ccc3c(c2)[C@@]2(N=C(C)C(N)=N2)[C@]2(CC[C@H](OC)CC2)C3)c1
IC50 (brain Aβ40 reduction, PK/PD model; Dunkin-Hartley guinea pig; oral, free concentration basis): 0.0009 µM

Some of these lines once more:
CCN(CC)c1ccc(/C=N/c2ccc(Br)cc2)c(O)c1
IC50 (ferric reducing power, FRAP): > 400 µM

CC#Cc1cncc(-c2ccc3c(c2)[C@@]2(N=C(C)C(N)=N2)[C@]2(CC[C@H](OC)CC2)C3)c1
IC50 (brain Aβ40 reduction, PK/PD model; Dunkin-Hartley guinea pig; oral, free concentration basis): 0.0009 µM
